Experimental data gathered from unrelated publications.
Every numbered part comes from another study and shows a few of its results, in no order. Changes are numbered by the printed parent chain.

Set 1
Target: ABI1, truncated, D143A, DHFR fusion (Arabidopsis thaliana)
Method: DHFR PCA, deep sequencing
Matrix: yeast
Notes: methotrexate growth selection, single substitutions
With: (+)-ABA 710 µM
Reference: wild-type fitted maximum
Reading: higher = stronger binding
Parent: PYL1, truncated, DHFR fusion (Arabidopsis thaliana); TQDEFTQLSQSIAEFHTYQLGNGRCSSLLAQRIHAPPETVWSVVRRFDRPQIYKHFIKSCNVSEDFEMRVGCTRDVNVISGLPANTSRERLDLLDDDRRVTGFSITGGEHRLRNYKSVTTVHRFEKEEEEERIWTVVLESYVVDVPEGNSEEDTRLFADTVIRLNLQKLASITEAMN
Variant	relative binding score [%]
Q19P	103
F47Q	-9.97
H16F	16
S171I	92.8
E129V	111
I57M	79.6
T73Y	104
I79C	109
P146K	25.6
S63V	98.2
D96S	80.2
D48Q	75.7
T73Q	106
S63C	107
H55P	101
Q2R	99.4

Set 2
Target: CCND1, cyclin fold, Cln2 fusion (human)
Method: yeast growth competition, sequencing
Matrix: yeast
Notes: weak parent motif
Reference: not given
Reading: higher = stronger binding
Parent: E2F1 docking peptide (human); PPVKRRLDLETDH
Variant	normalised enrichment score
D8T	1.06
D8F	0.978
K4D	0.234
V3H	-0.0256
R6L	0.356
K4Q	0.694
T11Y	0.724
K4M	1.1
V3T	0.217
E10L	-0.00107
K4A	1.69
T11A	0.784
D12M	0.261
L7Y	0.0603
H13M	0.497
R6T	0.805
H13Y	0.215
V3M	0.264
V3K	0.664

Set 3
Target: Fragile X messenger ribonucleoprotein 1, C-terminal low-complexity region (Fmr1, Mus musculus, UniProt P35922)
Method: RNA Bind-n-Seq
Form: RNA
Matrix: in vitro
Concentration: 200 nM
Notes: whole 134-nt RNA, ends assumed
With: 150 mM LiCl
Reference: input library
Reading: higher = stronger binding
Each molecule: 7-deaza-guanosine replaces G
All sequences stand within: GGGAGUUCUACAGUCCGACGAUC … UGGAAUUCUCGGGUGUCAAGG
Oligonucleotide	log2 enrichment
AGUCCUGUGCUACACAUCGUAUGUACCGAAUCGGGAGGGUUUUUUUGGGUUUUUGGGAAAGUAUUAUGUUACGCCGUUCGGAUCUGCACU	-1.53
CAAGUCCUGUGCUACACAUCGUAUGUACCGAAUCGGGGAAAAGGAAAAGGAAAAGGAAAGUAUUAUGUUACGCCGUUCGGAUCUGCACUU	-1.31
UUUGUGAGACAUGUGAAAGGAGGACAUGGUCACAGUCAUGGACAUGGACACGCUCACAGUCAUACACGUGGAAGUCAUGGACAUGGAAGA	-4.19
AGUCCUGUGCUACACAUCGUAUGUACCGAAUCGGGAAAGGGUUUGGGAAAAAAAGGGAAAGUAUUAUGUUACGCCGUUCGGAUCUGCACU	-2.54
AGUCCUGUGCUACACAUCGUAUGUACCGAAUCGGGUUUGGGUUUGGGUUUUUUUGGGAAAGUAUUAUGUUACGCCGUUCGGAUCUGCACU	-1.79
CCUGUGCUACACAUCGUAUGUACCGAAUCGGAAAAAAAGGGGAAAAAAAGGAAAAAAAGGGAAAGUAUUAUGUUACGCCGUUCGGAUCUG	-0.226
CACAGACAACACGCACCCACACAGACACAGAGGGAAGGGGUUGGGAUGGGGACAGGGUGCACAGCAGGGCGGGGUAGGACCGCAGCCCCU	-0.29
CAAGUCCUGUGCUACACAUCGUAUGUACCGAAUCGGCCCGGGGCCCGGGGCCCGGAAAGUAUUAUGUUACGCCGUUCGGAUCUGCACUUC	-1.36

Set 4
Target: Histone acetyltransferase KAT6A, winged helix 1, GST fusion (KAT6A, Homo sapiens, UniProt Q92794, residues 1-85)
Method: protein binding microarray
Form: double-stranded DNA, one strand shown
Matrix: in vitro
Concentration: not given
Notes: 8-mer, flanks averaged, mean of 2 arrays, mostly near background
Reference: not given
Reading: higher = stronger binding
Target sequence (chain): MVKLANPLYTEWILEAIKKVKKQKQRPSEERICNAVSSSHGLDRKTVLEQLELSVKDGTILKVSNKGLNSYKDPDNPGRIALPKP
Oligonucleotide	E-score
ACCGCACG	0.321
ACCTTGTG	-0.102
CAGGCTCC	0.0915
GGCCATAA	-0.17
CAGAGGGG	-0.238
CTGACTCA	-0.0795
CCATTCTC	-0.231
GAGTTGCC	0.104
AGTTTGGA	-0.161
TGATGCAA	-0.12
CCACGCTA	0.0747
TAAAGTGA	-0.1
AGGGCTAG	-0.135
CTCCTAAA	-0.271
ACCTTCCA	-0.0758
ATCGCCTC	-0.0382
CGACAAGA	-0.117
CTTTTTGA	-0.231
AAGGGAGC	-0.183
CTCTGATA	-0.165
CGCACCAA	0.152

Set 5
Target: Interferon regulatory factor 5, full length, phosphomimetic (IRF5, Homo sapiens, UniProt Q13568-2, residues 1-514, S451D/S453D/S456D/S462D)
Method: protein-binding microarray
Form: double-stranded DNA, one strand shown
Matrix: in vitro
Concentration: 940 nM top
Notes: 60-bp whole probe
With: salmon DNA 0.4 mg/ml
Reference: random background probes
Reading: higher = stronger binding
All sequences stand within: GCCTAGCAC … GTCTTGATTCGCTTGACGCTGCTG
Oligonucleotide	fitted relative affinity [z-score]
TCACTTTCCTTCTTGATACTGTGCTAG	2.31
GACGGAATGGGTCTCGGGACGTGCTAG	-0.0648
TTAGATTTCGACTATCGGTTAGTGCTA	0.993
GACGGTATCGACTATCGGGATGTGCTA	4.73
ATCAGTTTAATATCTAAGATTGTGCTA	0.335
TACGATTTCAGTTTCGAGACGTGCTAG	4.76
TCATTTTTCTACTTCTGACTGTGCTAG	1.54
CTTGCCCACTTCTGTGACAGGTGCTAG	-0.0949
GAAGATTTCGGGACTGGAGACGTGCTA	-0.0592
ATTGATAGTTTCACAATGCCGTGCTAG	4
GTCGGTATCGGGTTTCGGGACGTGCTA	6.85
TCATTTGTTTCACTTCCTACTGTGCTA	3.46
TTAGATATGGGGACTGGATTAGTGCTA	-0.0925
GACCGTCTCGGACTGGGGACGTGCTAG	0.528
GACGATTTCAGTTTCGAAACGTGCTAG	5.3
GACGACATCGGGACTGGAGACGTGCTA	-0.482
TCATTCCTCTCACCTCGGACTGTGCTA	1.37
TAGATCGTCCCTTTGAGAGGGTGCTAG	-0.558
GACGGTTTCGATTATCGGGACGTGCTA	12
